Assay results collected from several papers.
Each numbered part is a random draw from the data of one study; scales do not carry over between parts.
Sequence of UniProt O14730 (whole entry, looked up): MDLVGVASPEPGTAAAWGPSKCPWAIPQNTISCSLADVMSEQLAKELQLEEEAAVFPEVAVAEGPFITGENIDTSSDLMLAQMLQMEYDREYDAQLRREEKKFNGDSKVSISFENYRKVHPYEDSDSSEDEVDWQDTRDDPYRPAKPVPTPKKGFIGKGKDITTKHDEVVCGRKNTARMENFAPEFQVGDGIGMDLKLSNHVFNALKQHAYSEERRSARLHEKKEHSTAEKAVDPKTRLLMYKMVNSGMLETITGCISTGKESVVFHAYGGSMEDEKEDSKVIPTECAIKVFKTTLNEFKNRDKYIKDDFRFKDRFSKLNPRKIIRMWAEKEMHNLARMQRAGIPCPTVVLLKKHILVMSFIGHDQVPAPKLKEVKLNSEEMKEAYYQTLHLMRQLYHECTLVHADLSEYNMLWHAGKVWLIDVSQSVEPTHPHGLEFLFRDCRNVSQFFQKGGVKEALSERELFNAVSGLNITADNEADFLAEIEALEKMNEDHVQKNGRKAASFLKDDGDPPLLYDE
Sequence of UniProt O75116 (whole entry, looked up): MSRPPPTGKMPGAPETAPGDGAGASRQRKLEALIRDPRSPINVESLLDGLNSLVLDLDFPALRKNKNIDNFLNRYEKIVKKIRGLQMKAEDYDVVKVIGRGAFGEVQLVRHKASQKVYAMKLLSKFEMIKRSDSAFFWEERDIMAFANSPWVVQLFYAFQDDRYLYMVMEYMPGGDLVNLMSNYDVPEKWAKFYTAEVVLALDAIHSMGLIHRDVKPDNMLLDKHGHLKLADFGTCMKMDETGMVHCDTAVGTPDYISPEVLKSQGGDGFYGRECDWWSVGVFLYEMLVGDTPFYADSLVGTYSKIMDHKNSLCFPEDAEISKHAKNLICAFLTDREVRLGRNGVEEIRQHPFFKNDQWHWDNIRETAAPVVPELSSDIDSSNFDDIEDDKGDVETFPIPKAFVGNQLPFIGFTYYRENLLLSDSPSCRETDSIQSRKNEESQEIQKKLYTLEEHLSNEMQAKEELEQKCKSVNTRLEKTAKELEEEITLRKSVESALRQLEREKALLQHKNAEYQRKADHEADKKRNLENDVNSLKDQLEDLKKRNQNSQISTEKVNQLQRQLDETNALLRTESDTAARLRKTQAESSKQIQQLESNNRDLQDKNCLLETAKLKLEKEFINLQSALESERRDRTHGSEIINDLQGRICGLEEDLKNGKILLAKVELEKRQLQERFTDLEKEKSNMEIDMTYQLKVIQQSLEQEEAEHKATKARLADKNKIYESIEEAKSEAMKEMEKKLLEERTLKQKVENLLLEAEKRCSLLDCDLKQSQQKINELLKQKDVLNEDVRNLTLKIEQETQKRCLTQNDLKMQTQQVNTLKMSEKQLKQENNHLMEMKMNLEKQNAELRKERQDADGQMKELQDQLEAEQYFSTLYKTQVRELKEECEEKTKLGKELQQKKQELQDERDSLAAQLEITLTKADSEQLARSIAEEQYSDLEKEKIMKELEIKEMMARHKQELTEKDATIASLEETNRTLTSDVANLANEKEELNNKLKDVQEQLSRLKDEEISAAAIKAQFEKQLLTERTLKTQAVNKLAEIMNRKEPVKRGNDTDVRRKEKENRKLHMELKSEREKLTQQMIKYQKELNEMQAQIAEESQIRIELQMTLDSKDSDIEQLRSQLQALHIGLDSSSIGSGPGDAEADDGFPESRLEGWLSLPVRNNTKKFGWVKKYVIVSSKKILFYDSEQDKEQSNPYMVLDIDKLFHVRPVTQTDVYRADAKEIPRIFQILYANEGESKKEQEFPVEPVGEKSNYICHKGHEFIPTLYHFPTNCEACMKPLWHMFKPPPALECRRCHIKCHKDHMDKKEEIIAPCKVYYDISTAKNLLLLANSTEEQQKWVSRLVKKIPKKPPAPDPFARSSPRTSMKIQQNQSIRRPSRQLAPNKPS
Sequence of UniProt P16591 (whole entry, looked up): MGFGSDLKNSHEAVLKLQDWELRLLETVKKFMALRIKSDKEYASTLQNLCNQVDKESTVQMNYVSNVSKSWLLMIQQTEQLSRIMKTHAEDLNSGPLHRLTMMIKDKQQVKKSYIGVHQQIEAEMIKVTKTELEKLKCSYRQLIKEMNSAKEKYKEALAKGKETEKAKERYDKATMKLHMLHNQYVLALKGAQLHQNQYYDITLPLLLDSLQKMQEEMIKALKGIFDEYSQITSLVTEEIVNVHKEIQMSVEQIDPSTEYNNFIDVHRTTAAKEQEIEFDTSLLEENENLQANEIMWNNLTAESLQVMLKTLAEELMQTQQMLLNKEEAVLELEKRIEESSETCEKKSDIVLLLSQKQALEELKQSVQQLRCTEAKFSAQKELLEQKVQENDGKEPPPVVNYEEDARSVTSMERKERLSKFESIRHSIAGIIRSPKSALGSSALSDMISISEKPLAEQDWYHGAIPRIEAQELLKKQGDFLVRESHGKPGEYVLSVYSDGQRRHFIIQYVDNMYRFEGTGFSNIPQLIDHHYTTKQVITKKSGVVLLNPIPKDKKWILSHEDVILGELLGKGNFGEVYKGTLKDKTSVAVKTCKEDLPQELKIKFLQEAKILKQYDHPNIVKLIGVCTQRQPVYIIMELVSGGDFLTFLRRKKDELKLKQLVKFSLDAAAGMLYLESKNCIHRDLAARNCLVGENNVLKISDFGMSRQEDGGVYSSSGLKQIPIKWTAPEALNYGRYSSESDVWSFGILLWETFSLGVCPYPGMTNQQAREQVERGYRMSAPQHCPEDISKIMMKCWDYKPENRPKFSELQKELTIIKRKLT
Sequence of UniProt P10721 (whole entry, unmodified, looked up): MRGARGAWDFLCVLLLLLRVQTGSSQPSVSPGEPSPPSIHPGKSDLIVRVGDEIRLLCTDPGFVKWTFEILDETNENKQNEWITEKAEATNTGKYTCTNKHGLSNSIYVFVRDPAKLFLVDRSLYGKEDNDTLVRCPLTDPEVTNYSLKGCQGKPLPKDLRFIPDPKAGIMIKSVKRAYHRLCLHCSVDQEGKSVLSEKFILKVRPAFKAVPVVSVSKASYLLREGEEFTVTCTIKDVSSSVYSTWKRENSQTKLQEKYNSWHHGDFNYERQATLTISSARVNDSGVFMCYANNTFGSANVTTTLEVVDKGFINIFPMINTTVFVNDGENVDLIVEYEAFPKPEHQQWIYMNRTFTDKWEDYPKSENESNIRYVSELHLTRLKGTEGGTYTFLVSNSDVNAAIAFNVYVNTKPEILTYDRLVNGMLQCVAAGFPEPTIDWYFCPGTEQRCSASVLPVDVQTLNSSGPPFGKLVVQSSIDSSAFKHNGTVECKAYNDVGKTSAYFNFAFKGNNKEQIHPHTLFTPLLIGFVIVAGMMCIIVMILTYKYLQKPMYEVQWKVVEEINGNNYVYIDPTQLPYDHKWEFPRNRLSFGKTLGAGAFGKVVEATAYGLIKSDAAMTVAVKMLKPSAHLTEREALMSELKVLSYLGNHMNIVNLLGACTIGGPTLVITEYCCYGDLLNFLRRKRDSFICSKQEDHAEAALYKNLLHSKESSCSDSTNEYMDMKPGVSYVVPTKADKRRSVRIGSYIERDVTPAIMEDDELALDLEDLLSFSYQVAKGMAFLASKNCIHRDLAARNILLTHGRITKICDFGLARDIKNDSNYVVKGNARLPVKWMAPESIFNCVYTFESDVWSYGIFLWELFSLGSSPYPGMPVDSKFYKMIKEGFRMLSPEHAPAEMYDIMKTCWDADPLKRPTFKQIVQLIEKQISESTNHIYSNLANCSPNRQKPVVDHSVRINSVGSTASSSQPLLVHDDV
Sequence of UniProt Q8TDX7 (whole entry, looked up): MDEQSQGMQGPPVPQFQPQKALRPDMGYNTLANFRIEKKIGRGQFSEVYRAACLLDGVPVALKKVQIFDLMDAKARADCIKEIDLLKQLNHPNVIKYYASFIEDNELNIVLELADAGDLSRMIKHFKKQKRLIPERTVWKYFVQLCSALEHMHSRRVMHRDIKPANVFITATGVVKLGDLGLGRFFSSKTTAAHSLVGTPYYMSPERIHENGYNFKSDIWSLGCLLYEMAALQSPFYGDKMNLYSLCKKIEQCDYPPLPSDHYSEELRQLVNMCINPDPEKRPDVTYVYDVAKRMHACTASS
Sequence of UniProt Q8IW41 (whole entry, looked up): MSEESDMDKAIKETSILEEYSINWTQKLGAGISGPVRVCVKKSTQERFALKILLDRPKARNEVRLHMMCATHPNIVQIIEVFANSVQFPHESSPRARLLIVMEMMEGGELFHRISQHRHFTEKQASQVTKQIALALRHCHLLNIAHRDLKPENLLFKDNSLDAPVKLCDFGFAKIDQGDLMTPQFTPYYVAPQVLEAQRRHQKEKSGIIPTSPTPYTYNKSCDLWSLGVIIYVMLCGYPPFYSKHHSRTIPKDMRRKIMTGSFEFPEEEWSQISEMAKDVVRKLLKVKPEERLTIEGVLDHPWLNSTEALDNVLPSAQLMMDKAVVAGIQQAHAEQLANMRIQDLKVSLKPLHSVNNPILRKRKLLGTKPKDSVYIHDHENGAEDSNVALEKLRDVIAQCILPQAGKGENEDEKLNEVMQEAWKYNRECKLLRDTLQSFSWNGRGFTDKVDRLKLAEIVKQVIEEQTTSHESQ

Series 1
Target: RNA binding protein fox-1 homolog 2, RRM domain, GST-SBP tag (RBFOX2, Homo sapiens, UniProt O43251-10, residues 100-194)
Technique: RNA Bind-n-Seq
Molecule type: RNA
Sample: in vitro
Tested at: 365 nM
Notes: natural RNA segment, single round, ends assumed
Reference: no-protein control
Reading: higher = stronger binding
Constant ends, left off below: GGGAGUUCUACAGUCCGACGAUC … UGGAAUUCUCGGGUGCCAA
Construct (chain): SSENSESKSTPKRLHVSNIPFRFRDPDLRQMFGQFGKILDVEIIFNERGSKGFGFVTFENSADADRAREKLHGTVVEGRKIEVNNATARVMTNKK
| Oligonucleotide | RBNS enrichment (R) |
| --- | --- |
| ACCUCAGAAUUCUCAGGUAUGGAAACACUCAAGAGCUGCCUGGUAUGAAGCAAAGAGGAUCCUGGGCUAUUUAAAGCUCUGGUAACCGAGAAGAACUUGCCCCUGUUCUU | 3.89 |
| UGCCUGCCUGCUGUUGGUCCUCUCUCUGUGGGGCUGAAUUGCCAGGGGCGAGGCCCUUCCUCUUUGGUGGCAUGGAAGGGGCUUCUGGACCUAGGGUGGCCUGAGAGGGC | 2.23 |
| CCCAGGUCCAGGAAAUCCAAUGUUGGUGAAGGCAGCCACUCUCUUGCUUGUCCCCAAAUCACCUAACCCUCAUCCAGGGCUAUUUUGGUGGGCAGGGACUGCCUCCUCCC | 0.291 |
| UCUUGGCUUCCUGAUGGGAUCUCUUCUAGUGCAGUCCAGAUAGGGCUUGCAAUAUGAACCUUGGAAACUCAUAUAGCUGGGUGUUUGUUGAAGACUCUGCAUCUCACUGA | 0.623 |
| UGAAAAAUGUAUAUCACUCAAUUUUUAUCUAAGAAGGAUAGGUUAUAAAGGGAGGUACCUAAAUACUCAAAUAAUGUAUAUAUUCUUUUUCAUAACAUAUGGAAUGCUUU | 0.755 |
| CUGGGUGGAAACUGCUUUGCACUAUCGUUUGCUUGGUGUUUGUUUUUAACGCACAACUUGCUUGUACAGUAAACUGUCUUCUGUACUAUUUAACUGUAAAAUGGAAUUUU | 0.732 |
| UGGUUCUUUGCUGUUUCUAUUAACCCACAGCAUUAUUUUAAUAAAUGUUAUAAUACCAACCUACUAACUCUGGACUUUGUCUGUUUAUUAACCUUUAUAUGUUUAAUUAA | 0.496 |
| CUCCUGUUCAGUAUCCGAGUCUCGUGCAGUGCUGCGUAGGUUAGCCCGCAUCGUGCAGACAACCUCAGUCCUCUUGUCUAUUUUCUCUUGGGUUGAGCCUGUGACUUGGU | 0.582 |

Series 2
Target: Dual specificity tyrosine-phosphorylation-regulated kinase 4 (DYRK4, Homo sapiens, UniProt Q9NR20)
Effect on: enzyme activity
Action: inhibitor
Tested at: 0.5 µM
Reference: control
Residues (Q9NR20 1-520): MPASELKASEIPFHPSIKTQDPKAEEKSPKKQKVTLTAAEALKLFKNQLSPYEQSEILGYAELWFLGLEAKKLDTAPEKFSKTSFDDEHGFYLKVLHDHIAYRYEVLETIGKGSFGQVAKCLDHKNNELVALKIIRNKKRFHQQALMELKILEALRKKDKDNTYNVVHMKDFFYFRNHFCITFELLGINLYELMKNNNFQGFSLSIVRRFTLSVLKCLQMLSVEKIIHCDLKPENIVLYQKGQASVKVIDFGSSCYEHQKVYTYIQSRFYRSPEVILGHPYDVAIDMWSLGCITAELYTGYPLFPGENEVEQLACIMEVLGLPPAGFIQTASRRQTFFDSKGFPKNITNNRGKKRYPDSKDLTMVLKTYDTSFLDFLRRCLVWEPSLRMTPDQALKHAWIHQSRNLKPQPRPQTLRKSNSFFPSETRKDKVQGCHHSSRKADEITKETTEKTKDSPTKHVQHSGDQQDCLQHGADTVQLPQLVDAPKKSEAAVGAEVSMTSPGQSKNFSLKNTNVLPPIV
| SMILES | remaining activity |
| --- | --- |
| COc1cc2ncnc(Nc3ccc(F)c(Cl)c3)c2cc1OCCCN1CCOCC1 | 105% |
| O=c1c2ccccc2[nH]c(=S)n1CCN1CCC(=C(c2ccc(F)cc2)c2ccc(F)cc2)CC1 | 97.5% |
| Cc1ccc(NC(=O)c2ccc(CN3CCN(C)CC3)cc2)cc1Nc1nc(-c2cccnc2)cs1 | 100% |
| COc1ccc(C(=O)Nc2sc3c(c2C(N)=O)CCCC3)cc1OC | 98.5% |
| COc1ccc(CNC(=O)Nc2ncc([N+](=O)[O-])s2)cc1 | 97.7% |
| O=C1NC(=O)C(c2cn(CCCO)c3ncccc23)=C1c1cnccn1 | 98.4% |
| N#CC(C#N)=C(N)/C(C#N)=C/c1ccc(O)cc1 | 107% |
| Nc1[nH]nc2nc3ccccc3nc12 | 89.2% |
| COc1cc2ncnc(Nc3ccc(Oc4ccccc4)cc3)c2cc1OC | 97.3% |
| NCCNc1ncc(C(N)=O)c(Nc2cccc(C(F)(F)F)c2)n1 | 98.2% |
| O=S(=O)(c1cccc2cnccc12)N1CCCNCC1 | 97.9% |
| Cc1nc(-c2ccccc2)c(-c2ccncc2)o1 | 91.2% |
| Cn1sc(=O)n(Cc2ccccc2)c1=O | 99.3% |
| O=C(CCCc1ccc(-c2ccccc2F)cc1)Nc1ccc(O)cc1 | 97.4% |

Series 3
Target: RING finger protein unkempt homolog, zinc fingers 1-6, GST-SBP tag (UNK, Homo sapiens, UniProt Q9C0B0, residues 30-357)
Sequence of UniProt Q9C0B0 (30-357, looked up): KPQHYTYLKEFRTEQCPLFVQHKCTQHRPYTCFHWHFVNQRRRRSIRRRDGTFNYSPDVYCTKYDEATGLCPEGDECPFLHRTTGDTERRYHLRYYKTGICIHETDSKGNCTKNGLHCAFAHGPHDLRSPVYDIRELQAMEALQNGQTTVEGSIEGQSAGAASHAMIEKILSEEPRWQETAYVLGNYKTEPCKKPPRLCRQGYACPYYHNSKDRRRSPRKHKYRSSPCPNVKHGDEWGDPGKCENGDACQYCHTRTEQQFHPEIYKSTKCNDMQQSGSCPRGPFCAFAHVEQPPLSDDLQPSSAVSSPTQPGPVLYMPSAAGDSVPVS
Technique: RNA Bind-n-Seq
Molecule type: RNA
Sample: in vitro
Tested at: not given
Notes: RNA with constant flanks, human-mouse chimeric sites, ends assumed
Reference: input RNA pool
Reading: higher = stronger binding
Constant ends, left off below: GGGAGUUCUACAGUCCGACGAUC … CAACAGAGGAUUGAGCAUCA
| Oligonucleotide | bound/input enrichment [ratio] |
| --- | --- |
| AUAGAUGAAAUUGAUGUGGACCAGGAAGGAAUUGCUGAAAUGAUCCUGGAUGAAAAUGCUAUAGCUCAGGUCCCACGCCCUGGCACAUCUUUGAAGCUCCCUGGCACUAAUCAGACAGGA | 0.337 |
| GUAGCUGGGACUACAGAAAUGCUGGUAAUUUCAGUCACUUGCUGAUGACUUCUGAUGUCCCAGCAAAUAAUGCCACAGUUGACUGCUGAGAAGAUACACUCGCAAGGCCACGUCUAAGGU | 0.112 |
| GUACUGCAACAGCAGGGAAAACUGCAGGAAGCUCUGAUGCAUUAUAAGGAGGCUAUUCGAAUCAGUCCUACCUUUGCUGAUGCCUACUCUAAUAUGGGAAACACUCUAAAGGAGAUGCAG | 0.165 |
| AUAAAGGCUAUGUUGAGUGGUCCAGGUCAGUUUGCUGAGAACGAAACCAACGAGGUCAAUUUUAGAGAGAUCCCCUCACAUGUGCUAUCGAAAGUAUGCAUGUAUUUUACCUACAAGGUC | 0.179 |
| CUUUUUAAGAAGAUAUGUGAUGGGAUCUUUUAUACCCCUCAGUACUUAAAUCCUUCUGUAAUCAGCCUUUUGAAACAUAUGCUGCAGGUGGAUCCCAUGAAGAGGGCCACAAUCAAAGAU | 0.22 |
| UCUGGCCACACUCGUGUGUAUGGUGUUUGCUUUGUGGACACUUCACUGGGCAAGUUUUUCAUCGGCCAGUUUUCGGAUGACCGCCACUGUUCCAGAUUUAGGACGCUAGUGGCUCACUAU | 0.197 |
| CAGCCUCAGAGCCCAGACUUCCUGGAUAUUACCAACCCUAAAGCGGUAUUAGAAAACGCAUUGAGAAACUUCGCCUGUCUGACGACUGGAGAUGUGAUUGCUAUCAACUAUAAUGAAAAG | 0.457 |
| AGAGAUAAGACAUCCAGAAAUAUGAGAGGCUCCCGGAUGAAUGGGUUGCCUAGCCCCACUCACAGCGCCCACUGUAGCUUCUACCGAACCAGAACCUUGCAGGCACUGAGUAAUGAGAAG | 0.231 |

Series 4
Compound: O=C(NS(=O)(=O)c1ccc(NCC2CCOCC2)c([N+](=O)[O-])c1)c1ccc(N2CCN(Cc3ccc(C(F)(F)F)cc3-c3ccc(Cl)cc3)CC2)cc1Oc1cnc2[nH]ccc2c1
Effect on: cell-free assay
Technique: competition with immobilised ligand
Tested at: 1 µM
| target | remaining binding [%] |
| --- | --- |
| MAPKAPK5 (Homo sapiens, UniProt Q8IW41) | 81 |
| NEK7 (Homo sapiens, UniProt Q8TDX7) | 97 |
| RIOK3 (Homo sapiens, UniProt O14730) | 98 |
| HIPK3 (Homo sapiens, UniProt Q9H422) | 100 |
| FER (Homo sapiens, UniProt P16591) | 94 |
| PRKX (Homo sapiens, UniProt P51817) | 100 |
| KIT (Homo sapiens, UniProt P10721, D816H) | 76 |
| PIP4K2B (Homo sapiens, UniProt P78356) | 100 |
| ROCK2 (Homo sapiens, UniProt O75116) | 100 |
| CLK2 (Homo sapiens, UniProt P49760) | 99 |
